Measurements pooled from the literature.
Compare with care: the assays were run in different laboratories.

`CCOc1ccc2ccc(=O)oc2c1` gave a remaining compound of 7.9% (mouse liver microsomes; 1 µM, 10 min, pH 7.4).
For `C=CC(=O)N1CCC(C(=O)N(C)CC(=O)N2CCN(c3nc(-c4cnc(N)nc4C(F)F)nc(N4CCOCC4)n3)CC2)CC1`, the remaining compound was 92% (microsomes, rat liver, male, Sprague-Dawley; 1 µM, 30 min, 0.5 mg/mL microsomal protein, together with: NADPH).
`Cc1cc(Oc2ncccc2CN2CCN(c3ncccc3C(F)(F)F)CC2)ccc1-c1c(C)c(=O)[nH]c(=O)n1C` has a remaining compound of 90% (metabolic stability; rat liver S9 fraction; 2 µM, 0.6667 h, pH 7.4).
For `CSc1nccc(C(=O)N[C@@H](CCC(=O)O)C(=O)N[C@@H](Cc2ccc3ccccc3c2)C(=O)N[C@@H](CC(C)C)C(=O)NC2CC2c2ccccc2)n1` (stereo partly shown), the remaining compound was 100% (pooled human plasma; 0 min, 37 °C).
For `C/C=C/C(=O)Nc1ccc(-n2nc3c(=O)[nH]nc(N)c3c2-c2oc3ccc(C)cc3c2C)cc1`, the remaining compound was 95.7% (BALB/c nude mouse whole blood; 1 µM, 1 h, 37 °C).
For `O=C(N/N=C/c1ccccc1O)c1ccncc1`, the remaining compound was under 2.5% (LC-MS; rat plasma; 100 µM, 10 h, 37 °C).
The remaining compound of `O=Cc1c(O)cc(C(F)(F)F)cc1C(F)(F)F` is reported as 96% (HPLC-MS; HEPES buffer with 10% acetonitrile; 1 mM, 1 h, pH 7.4).
For `O=C(O)Cc1ccccc1Nc1c(Cl)cccc1Cl`, the remaining compound was 2% (human liver microsomes; 1 µM, 60 min, pH 7.4).
`N.O=C(Nc1nc2ccccc2s1)NS(=O)(=O)O` gave a remaining compound of 0% (mouse liver microsomes; 4 µM, 30 min).
With `N#Cc1ccc(Nc2nc(N)cc(Oc3c(F)cc(-c4ccc(C#N)cc4)cc3F)n2)cc1` the remaining compound was 83.4% (monkey plasma; 1 µM, 2.00 h, pH 7.4, 37 °C).
For `N#Cc1ccccc1-c1cc(NCCCN2CCCCC2)c2ccccc2n1`, the remaining compound was 93.2% (human plasma; 1 h).
For `Cn1cncc1-c1c(F)cncc1NC(=O)c1c(N)nn2cc(F)cnc12`, the remaining compound was 99.6% (DMSO stock solution; 100 µg/mL, 6 months, -80 °C).
With `CC[N+]1(C)CCN(c2ccc(NC(=O)c3cccc(C)n3)cc2)CC1` the remaining compound was 102% (pooled BALB/c mouse plasma; 1 µM, 0.25 h).
The remaining compound of `C#CCN(C)Cc1ccccc1` is reported as 95% (LC-MS; PBS with 25% DMSO; 5 mM, 144 h, 37 °C).
`N#C[C@@]12C[C@@H]1[C@@H](n1cnc3c(N[C@@H](C4CCC4)C4CC4)nc(I)nc31)[C@H](O)[C@@H]2O` has a remaining compound of 94.4% (plasma stability; mouse plasma; 120 min).
With `COc1ccc2[nH]c([S+]([O-])Cc3ncc(C)c(OC)c3C)nc2c1` (stereo not shown) the remaining compound was 100% (simulated gastric fluid with pepsin; 1 µM, 0 min, pH 1.2).
`COc1cc2c3cc1Oc1c(OC)c(OC)cc4c1[C@@H](Cc1ccc(O)c(c1)Oc1ccc(cc1)C[C@@H]3N(C)CC2)N(C)CC4` has a remaining compound of 94% (mouse plasma, K3EDTA; 1 h, on ice).
`COc1ccc(-c2c(-c3ccc(C#N)c(F)c3)nc(N3CCC(N)CC3)n(C)c2=O)cc1F` has a remaining compound of 98% (aqueous buffer; 0 days, 37 °C).
With `NC(=O)c1ccc(-c2cc(NCCCN3CCCCC3)c3ccccc3n2)cc1` the remaining compound was 94.6% (human plasma; 1 h).

For quick reference, copied from above:
The remaining compound of `C#CCN(C)Cc1ccccc1` is reported as 95% (LC-MS; PBS with 25% DMSO; 5 mM, 144 h, 37 °C).
With `NC(=O)c1ccc(-c2cc(NCCCN3CCCCC3)c3ccccc3n2)cc1` the remaining compound was 94.6% (human plasma; 1 h).
